Assay results from different studies.
Parts stem from different laboratories: compare values within a part only. Several values in a cell are separate wells, animals, samples, runs or records.
Sequence of UniProt P9WI81 (whole entry, looked up): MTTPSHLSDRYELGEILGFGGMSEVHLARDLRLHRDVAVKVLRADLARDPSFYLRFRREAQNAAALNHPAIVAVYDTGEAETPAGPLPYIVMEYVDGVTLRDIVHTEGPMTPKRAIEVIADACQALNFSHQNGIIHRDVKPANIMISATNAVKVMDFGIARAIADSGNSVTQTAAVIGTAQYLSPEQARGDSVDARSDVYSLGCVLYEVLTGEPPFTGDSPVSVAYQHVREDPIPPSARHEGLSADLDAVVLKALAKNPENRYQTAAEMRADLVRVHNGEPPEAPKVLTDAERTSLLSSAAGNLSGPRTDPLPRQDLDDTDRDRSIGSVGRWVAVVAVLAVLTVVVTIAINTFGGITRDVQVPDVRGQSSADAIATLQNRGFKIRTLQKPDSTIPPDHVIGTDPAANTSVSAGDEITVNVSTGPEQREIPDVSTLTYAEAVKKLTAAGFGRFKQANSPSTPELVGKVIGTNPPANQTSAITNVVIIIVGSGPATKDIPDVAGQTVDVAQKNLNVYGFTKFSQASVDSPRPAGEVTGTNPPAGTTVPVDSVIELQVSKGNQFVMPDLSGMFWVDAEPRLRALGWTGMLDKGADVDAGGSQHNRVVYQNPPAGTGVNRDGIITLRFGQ

Set 1
SMILES: Cn1cc(-c2cccc(CN3CCC4(CC3)COc3c4ccc4c3CN([C@H]3CCC(=O)NC3=O)C4=O)c2)cn1
Host: Crbn I391V mouse, MC-38 tumour
Quantity: tumour volume
dose = 30 mg/kg; time = day 11; added = anti-LAG3 antibody 10 mg/kg weekly; value = 361 mm3 and 171 mm3 and 807 mm3 and 608 mm3 and 381 mm3
route = oral, daily; dose = 30 mg/kg; time = day 19; notes = anti-PD1 combination study; value = 256 mm3 and 1190 mm3 and 706 mm3 and 269 mm3 and 922 mm3
route = oral; dose = 30 mg/kg once daily; time = day 10; value = 195 mm3 and 286 mm3 and 70.9 mm3 and 162 mm3 and 198 mm3
route = oral, daily; dose = 30 mg/kg; time = day 15; notes = anti-PD1 combination study; value = 187 mm3 and 257 mm3 and 262 mm3 and 765 mm3 and 185 mm3

Set 2
SMILES: CCCCC[C@@H](O)CC(=O)N[C@H]1COC(=O)[C@H](CO)NC(=O)[C@H](Cc2ccccc2)NC(=O)[C@@H](Cc2c[nH]c3ccccc23)NC(=O)[C@@H](C(C)O)NC(=O)[C@H](CC(N)=O)NC(=O)[C@@H](C(C)C)NC(=O)[C@H](CC(C)C)NC(=O)[C@@H](Cc2ccc(O)cc2)N(C)C(=O)CNC(=O)[C@H](CO)NC(=O)[C@@H](CC(N)=O)NC1=O (stereo partly shown)
Organism: Staphylococcus aureus
Strain: USA300
Concentration: 2 x MIC
Quantity: viable cells
time = 30 min; value = 2900 CFU/mL and 3000 CFU/mL and 2600 CFU/mL
time = 15 min; value = 5500 CFU/mL and 5300 CFU/mL and 5900 CFU/mL
time = 360 min; value = 400 CFU/mL and 700 CFU/mL and 500 CFU/mL
time = 240 min; value = 600 CFU/mL and 800 CFU/mL

Further values, each from its own experiment
SMILES = COc1cc(-c2nc3ccc(C(=O)NCCCN(C)C)cc3n2C2CCC2)cc(OC)c1OC; tested on = Serine/threonine-protein kinase PknB (pknB, Mycobacterium tuberculosis, UniProt P9WI81); assay = binding, competition with immobilised ligand; setting = 1 µM; quantity = remaining binding; value = 100%
SMILES = N=C(N)NCCCCCCN1CCC23c4c5ccc(O)c4OC2c2nc4ccccc4cc2CC3(O)C1C5 (stereo not shown); assay = modified Racine scale; test system = C57BL/6J mice, male; setting = intracerebroventricular, 100 nmol, 25 min; how to read = direction not given; quantity = seizure score; value = 0
